# Measurements of several laboratories.
# Lines come from different studies, so protocols differ. ± gives the spread as reported.
# Chain of UniProt Q12769 (whole entry, looked up): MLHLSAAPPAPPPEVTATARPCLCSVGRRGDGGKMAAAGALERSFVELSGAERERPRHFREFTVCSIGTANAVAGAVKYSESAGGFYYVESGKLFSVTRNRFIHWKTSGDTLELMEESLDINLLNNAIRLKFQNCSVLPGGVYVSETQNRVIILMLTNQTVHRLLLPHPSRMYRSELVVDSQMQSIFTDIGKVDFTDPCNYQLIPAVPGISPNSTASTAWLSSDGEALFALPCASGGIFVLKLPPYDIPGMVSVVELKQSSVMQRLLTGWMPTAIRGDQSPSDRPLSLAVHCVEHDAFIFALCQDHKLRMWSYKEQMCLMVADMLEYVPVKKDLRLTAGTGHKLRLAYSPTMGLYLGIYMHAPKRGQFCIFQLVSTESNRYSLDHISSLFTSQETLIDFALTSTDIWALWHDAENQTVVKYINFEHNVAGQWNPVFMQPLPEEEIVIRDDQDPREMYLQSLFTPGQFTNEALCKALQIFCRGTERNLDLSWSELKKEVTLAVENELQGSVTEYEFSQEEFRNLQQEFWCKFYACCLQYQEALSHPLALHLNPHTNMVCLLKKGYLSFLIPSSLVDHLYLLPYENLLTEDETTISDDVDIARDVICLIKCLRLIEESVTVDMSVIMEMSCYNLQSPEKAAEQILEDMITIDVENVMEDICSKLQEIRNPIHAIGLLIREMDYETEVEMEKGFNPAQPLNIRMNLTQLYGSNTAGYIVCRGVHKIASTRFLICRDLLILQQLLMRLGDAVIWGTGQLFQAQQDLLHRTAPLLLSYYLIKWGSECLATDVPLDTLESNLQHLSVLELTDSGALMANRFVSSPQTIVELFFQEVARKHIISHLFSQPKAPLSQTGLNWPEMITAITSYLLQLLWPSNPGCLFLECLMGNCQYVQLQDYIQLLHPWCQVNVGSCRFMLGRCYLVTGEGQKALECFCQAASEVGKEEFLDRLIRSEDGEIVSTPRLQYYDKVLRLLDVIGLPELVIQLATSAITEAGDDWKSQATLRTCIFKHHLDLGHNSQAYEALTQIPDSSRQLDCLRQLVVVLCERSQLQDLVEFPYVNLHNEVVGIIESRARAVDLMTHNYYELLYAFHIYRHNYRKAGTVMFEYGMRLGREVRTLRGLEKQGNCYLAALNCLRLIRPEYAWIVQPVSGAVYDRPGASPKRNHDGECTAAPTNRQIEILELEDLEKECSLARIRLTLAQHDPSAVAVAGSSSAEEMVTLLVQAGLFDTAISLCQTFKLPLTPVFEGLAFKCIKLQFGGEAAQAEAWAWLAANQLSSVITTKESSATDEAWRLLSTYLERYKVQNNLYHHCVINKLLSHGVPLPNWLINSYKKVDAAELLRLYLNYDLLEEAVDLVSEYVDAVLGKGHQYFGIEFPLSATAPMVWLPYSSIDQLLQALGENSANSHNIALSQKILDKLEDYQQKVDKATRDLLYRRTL
SMILES,tested on,test,system,conditions,how to read,quantity,result
COc1cc2c(Oc3ccc4[nH]c(C)cc4c3F)ccnc2cc1OCC1(N)CC1,,,paediatric recurrent refractory sarcoma,"concentration not given, whole group",,grade 1 or 2 Hypothyroidism,58.8%
CC(=O)N[C@@H](CC(N)=O)C(=O)N[C@@H](CCCNC(=N)N)C(=O)N[C@@H](CC(C)C)C(=O)N[C@H]1CSSC[C@@H](C(=O)N[C@H](C(N)=O)[C@@H](C)O)NC(=O)[C@H](CCCNC(=N)N)NC(=O)[C@H](Cc2c[nH]cn2)NC(=O)[C@H](C)NC(=O)CNC(=O)[C@H](Cc2c[nH]c3ccccc23)NC(=O)[C@H](CC(=O)O)NC(=O)[C@H](CCC(N)=O)NC(=O)[C@H](Cc2c[nH]c3ccccc23)NC(=O)[C@H](C(C)C)NC1=O,,"isocratic RP-HPLC, C18","32% acetonitrile, phosphate pH 7.4, 1% TFA",25 °C,,log retention factor,-0.267
CC[C@H](C)[C@H](NC(=O)[C@H](Cc1ccccc1)NC(=O)[C@H](CCC(=O)O)NC(=O)[C@H](CCCNC(=N)N)NC(=O)[C@H](C)NC(=O)[C@H](C)NC(=O)[C@H](CCC(N)=O)NC(=O)[C@H](CCC(=O)O)NC(=O)[C@H](CCC(=O)O)NC(=O)[C@H](CC(C)C)NC(=O)[C@H](Cc1ccc(O)cc1)NC(=O)[C@H](CO)NC(=O)[C@H](CO)NC(=O)[C@@H](NC(=O)[C@H](CC(=O)O)NC(=O)[C@H](CO)NC(=O)[C@@H](NC(=O)[C@H](Cc1ccccc1)NC(=O)[C@@H](NC(=O)CNC(=O)[C@H](CCC(=O)O)NC(=O)[C@H](C)NC(=O)CCc1c[nH]cn1)[C@@H](C)O)[C@@H](C)O)C(C)C)C(=O)N[C@@H](C)C(=O)N[C@@H](Cc1c[nH]c2ccccc12)C(=O)N[C@@H](CC(C)C)C(=O)N[C@H](C(=O)N[C@@H](CCCNC(=N)N)C(=O)NCC(=O)N[C@@H](CCCNC(=N)N)C(=O)N[C@@H](CCCCNC(=O)COCCOCCNC(=O)COCCOCCNC(=O)CC[C@H](NC(=O)CCCCCCCCCCCCCCCCC(=O)O)C(=O)O)C(=O)NCC(=O)NCC(=O)N[C@@H](CO)C(=O)N[C@@H](CCCCNc1c(NCCCCCN(O)C(=O)CCC(=O)NCCCCCN(O)C(=O)CCC(=O)NCCCCCN(O)C(C)=O)c(=O)c1=O)C(=O)O)C(C)C [zirconium-89 labelled],,gamma counting,"rat, colon content","intravenous, 3 nmol/kg, 4 h",,tissue uptake,0.01 %ID/g
COc1cc(N2CC[C@@]3(O)C(=O)c4cc(C)c(C)cc4N=C23)ccn1,,"cardiac output, echocardiography",rat,"IV, 5 mg/kg",,recovery time,< 5 min
CN1CCN(S(=O)(=O)c2cc([N+](=O)[O-])ccc2N(CCOS(C)(=O)=O)CCOS(C)(=O)=O)CC1,,,"naive female NSG mice, plasma","intraperitoneal, 25 mg/kg",,AUMC(0-inf),1.42 µM·h²
N=C(N)NCCC[C@@H](NC(=O)[C@@H](N)Cc1ccccc1)C(=O)N[C@@H](Cc1ccccc1)C(=O)N[C@@H](CCCCN)C(N)=O,,LC-MS,human,"25 mg, 23.83 h",,median amount excreted in urine,402000 ng
CC(=O)c1c(C)c2cnc(Nc3ccc(N4CCNCC4)cn3)nc2n(C2CCCC2)c1=O,,,C57BL/6 mouse pups,intraperitoneal,,MTD,10 mg/kg/day
Cc1cc(C)c(CNC(=O)c2cc(Cl)c3c(c2C)O[C@@](C)([C@H]2CC[C@H](N(C)C)CC2)O3)c(=O)[nH]1,,,"human, relapsed/refractory NHL","concentration not given, all TEAEs, grade 5",,Diarrhoea incidence,0%
CC(=O)c1c(C)c2cnc(Nc3ccc(C4CCN(CCS(C)(=O)=O)CC4)cn3)nc2n(C2CCCC2)c1=O,,,"human, plasma","oral, 75 mg, day 1 single dose",,elimination rate constant,2.22e-05 s⁻¹
CCN(CC)CCCC(C)Nc1c2ccc(Cl)cc2nc2ccc(OC)cc12 (centres unmarked),,,BALB/c mouse,,,MTD,50 mg/kg
O=C1Nc2cc3[nH]nc(-c4ccncc4)c3cc2CN1Cc1ccccc1,,item: retinal detachment,patients with advanced solid tumours,"intravenous, dose not given",,patients with TEAE,15%
C[C@]1(CO)Cc2ncn(-c3ccc(C#N)c(Cl)c3)c2C(=O)O1,,,human,"10 mg multiple doses, fasted",,subjects with drug-related somnolence,0%
Cc1cccc(Cn2nc(C3CC3)c3c(NC(=O)c4cnc5cc(OCCN6CCN(C)CC6)ccn45)cccc32)n1,,"CTCAE v4.03, item: all adverse events",advanced solid tumour patients,"oral, dose not given, all cohorts, together with: pembrolizumab IV every 3 weeks",,all-cause adverse events,98.2%
CCc1ccc(CC/C=C/c2ccc3c(c2)C(=O)CC3)cc1,,,"Sprague-Dawley rat, male","oral, 120 mg/kg/day, 14 days",,CHCM,315 g/L
O=C(O)CCCOc1ccc(F)cc1-c1cc(-c2ccccc2C(F)(F)F)n(-c2ccccc2)n1,,item: Neutrophils,"Crl:CD(SD) rats, female, blood","iv, 25 µg/kg, 14 days",,leukocyte differential,17.1 ± 4.9%
COc1cc(C2C3=C(COC3=O)N(CCO)c3cc4c(cc32)CCC4)cc(OC)c1OC (centres unmarked),,,female Sprague-Dawley rats,"intraperitoneal, 100 mg/kg, 24 h, single dose, mean",,body weight,204 g
CC(C)C[C@@H]1NC(=O)CNC(=O)[C@H](CC(N)=O)NC(=O)[C@H](CCCNC(=N)N)NC(=O)[C@H]([C@@H](C)O)NC(=O)[C@@H]2CSSC[C@@H]3NC(=O)[C@H]([C@@H](C)O)NC(=O)CNC(=O)CNC(=O)[C@H](CCCCN)NC(=O)[C@@H]4CSSC[C@H](NC(=O)[C@H]([C@@H](C)O)NC(=O)[C@H](CSSC[C@H](NC(=O)[C@H](C(C)C)NC(=O)[C@@H]5CCCN5C1=O)C(=O)NCC(=O)N[C@@H](CCC(=O)O)C(=O)N[C@@H]([C@@H](C)O)C(=O)N4)NC(=O)CNC(=O)[C@@H]1CCCN1C(=O)[C@H]([C@@H](C)O)NC(=O)[C@H](CC(N)=O)NC3=O)C(=O)N[C@@H](CO)C(=O)N[C@@H](Cc1c[nH]c3ccccc13)C(=O)N1CCC[C@H]1C(=O)N[C@@H](C(C)C)C(=O)N2,,HPLC,ammonium bicarbonate,"180 µM, 7 days, pH 9.0, 25 °C, deamidation stability",,remaining peptide,97.1 ± 0.1%
CN1CC[C@@H](c2c(O)cc(O)c3c(=O)cc(-c4ccc(C(F)(F)F)cc4Cl)oc23)[C@@H]1CO,,item: respiratory failure,AML,"oral, 150 mg, grade 3 to 4, intermittent dosing",,patients with adverse event,25%
CCC(C)c1cc(C(C)(C)C)cc(-n2nc3ccccc3n2)c1O (centres unmarked),,,EpiSkin reconstructed epidermis,"concentration not given, 36 h",,amount in receptor fluid,not detected
Nc1ncc(-c2nc(N3CCOCC3)nc(N3CCOCC3)n2)c(C(F)F)n1,,,"Wistar rat, both sexes, blood","oral gavage, 14-day pilot toxicity study",,apparent half-life,2.3 to 5.7 h
Cc1ccc(-c2ccnc(Nc3ccc(N4CCN(C)CC4)c(C(F)(F)F)c3)n2)cc1,,,zebrafish embryos,"50 µM, 5 d",,toxicity,0%
COc1ccnc(C(=O)N[C@H]2COC(=O)[C@H](Cc3ccccc3)[C@@H](OC(=O)C(C)C)[C@H](C)OC2=O)c1OCOC(=O)C(C)C,,,bovine muscle,-18 °C,,storage stability,7 months
COc1ncnn2ccc(-c3cnc4nc(C)n(Cc5nnc([C@@H](C)F)o5)c4c3)c12,,,human patients,"oral, dose not given",,incidence of decreased WBC (all grades),14.3%
CCN1[C@@H](C(=O)NC23CCC(C(=O)O)(CC2)CC3)[C@H](c2cccc(Cl)c2F)[C@]2(C(=O)Nc3cc(Cl)ccc32)C12CCCCC2,,,patients with advanced solid tumours,"oral, dose not given, all doses",,Anemia incidence,52.4%
CCN(CCO)CCCC(C)Nc1ccnc2cc(Cl)ccc12 (centres unmarked),,,newly diagnosed glioblastoma patients,"oral, 400 mg/dose, grade 4, together with: radiotherapy plus temozolomide",,neutrophil count decreased patients,33%
Cc1cn([C@H]2O[C@@H](CO[P@@](=O)(N[C@@H](C)C(=O)OC(C)C)Oc3ccccc3)[C@H](O)[C@H]2F)c(=O)[nH]c1=O,,item: Fatigue,human,10 mg,,patients with TEAE,0%
Clc1ccc(-c2cc(Cl)c(Cl)c(Cl)c2Cl)cc1Cl,,,PDMS-water partitioning,PCB compilation,relative to: maximum over minimum K,literature range factor,1.4
C[C@H]1CN(c2n[nH]c3nc(N[C@H]4CC[C@H](NS(=O)(=O)CCC(F)(F)F)CC4)ncc23)CCO1,"Nuclear pore complex protein Nup160 (Homo sapiens, UniProt Q12769)","Kinobeads competition, item: NUP160",,"0.032 µM, unit not given",relative to: vehicle,remaining binding,1.56
O=C(Nc1ccccc1)C1CCN(C(=O)Oc2cccnc2)CC1,,Bond-Lader VAS,healthy women,"oral, 100 mg","relative to: pre-dose baseline, direction not given",change in Tense-Relaxed score,16
O.O.O.O.O.O.[Cl-].[Cl-].[Co+2],,,"Crl:CD(SD) rat male, blood","oral, 7.44 mg Co/kg/day, 90 days",relative to: red blood cells,reticulocytes,10.5%
CCN1CCN(Cc2ccc(Nc3ncc(F)c(-c4cc(F)c5nc6n(c5c4)[C@H](C)CCC6)n3)nc2)CC1,,,advanced solid tumour patients,"dose not given, Phase Ia monotherapy",,"Diarrhea incidence, any grade",54.2%
c1cc2ccc3cccc4ccc(c1)c2c34,,,polyethylene-water partitioning,PAH compilation,relative to: maximum over minimum K,literature range factor,4
NCCCC[C@@H]1NC(=O)[C@@H](Cc2c[nH]c3ccccc23)NC(=O)[C@H](c2ccccc2)NC(=O)[C@@H]2C[C@@H](OC(=O)NCCN)CN2C(=O)[C@H](Cc2ccccc2)NC(=O)[C@H](Cc2ccc(OCc3ccccc3)cc2)NC1=O,,,healthy volunteers,"subcutaneous, 600 µg twice daily, day 5, 0.00 h",,QTcI change from baseline,0.9 ms
Clc1cc(Cl)c(-c2c(Cl)c(Cl)cc(Cl)c2Cl)cc1Cl,,,fresh water,"20 °C, S30-2 sampler, 30 µm",,log K(PDMS-water),6.7 ± 0.1
COc1cc2c(cc1OC)CN(CCc1ccc(NC(=O)c3cccc4c(=O)c5cccc(OC)c5[nH]c34)cc1)CC2,,,"CD-1 mouse, male, plasma","intraperitoneal, 0.3 mg/kg",,AUC(0-t),448 ng·h/mL
O=S(=O)(Nc1ccccc1)c1ccc(NC(=S)Nc2ccccc2)cc1,,,"mouse, male, large intestine","oral, 5 mg/kg daily, 14 days",relative to: body weight,relative organ weight,0.83%
CC(C)[C@H](O)C(=O)N[C@H]1Cc2ccc3c(c2)[C@]2(C4=C(c5nc(CO)co5)N=C(O4)[C@H](C(C)(C)C)NC1=O)c1cc(F)ccc1N[C@@H]2O3,,,"NSG mice, plasma","intravenous, 10 mg/kg, single dose at MTD, together with: paclitaxel 40 mg/kg",,terminal half-life,5.8 h
CN[C@H]1CC[C@@H](c2ccc(Cl)c(Cl)c2)c2ccccc21,,,"CD-1 mouse, male, lung","intraperitoneal, 30 mg/kg",,Tmax,0.25 h
CC(C)C[C@@H]1NC(=O)CNC(=O)[C@H](CC(N)=O)NC(=O)[C@H](CCCNC(=N)N)NC(=O)[C@H]([C@@H](C)O)NC(=O)[C@@H]2CSSC[C@@H]3NC(=O)[C@H]([C@@H](C)O)NC(=O)CNC(=O)CNC(=O)[C@H](C(C)C)NC(=O)[C@@H]4CSSC[C@H](NC(=O)[C@H]([C@@H](C)O)NC(=O)[C@H](CSSC[C@H](NC(=O)[C@H](C(C)C)NC(=O)[C@H](CCCCN)NC1=O)C(=O)NCC(=O)N[C@@H](CCC(=O)O)C(=O)N[C@@H]([C@@H](C)O)C(=O)N4)NC(=O)CNC(=O)[C@@H]1CCCN1C(=O)[C@H]([C@@H](C)O)NC(=O)[C@H](CC(N)=O)NC3=O)C(=O)N[C@@H](CO)C(=O)N[C@@H](Cc1c[nH]c3ccccc13)C(=O)N1CCC[C@H]1C(=O)N[C@@H](C(C)C)C(=O)N2,,HPLC,water,"180 µM, 14 days, 37 °C, deamidation stability",,remaining peptide,97.7 ± 0.2%
CO[C@H]1C[C@@H]2CC[C@@H](C)[C@@](O)(O2)C(=O)C(=O)N2CCCC[C@H]2C(=O)O[C@H]([C@H](C)C[C@@H]2CC[C@@H](OC(=O)NCCOCCOCCOCCOCCOCCOCCOCCOCCC(=O)N3CCc4cc(Cn5nc(-c6ccc7oc(N)nc7c6)c6c(N)ncnc65)ccc4C3)[C@H](OC)C2)C[C@@H](O)[C@H](C)/C=C(\C)[C@@H](O)[C@@H](OC)C(=O)[C@H](C)C[C@H](C)/C=C/C=C/C=C/1C,,,patients with advanced solid tumours,"intravenous, 6 mg weekly, grade 3 or higher",,dyspnoea incidence,0%
CC(C)C[C@H](NC(=O)[C@H](CCCCN)NC(=O)OCC1c2ccccc2-c2ccccc21)C(=O)N[C@H](C(=O)N[C@@H](Cc1ccccc1)C(=O)N[C@@H](Cc1ccccc1)C(=O)N[C@@H](CCCCN)C(=O)NCC(=O)N[C@@H](Cc1ccccc1)C(=O)N[C@@H](C)C(=O)N[C@@H](Cc1c[nH]c2ccccc12)C(=O)N[C@@H](CC(N)=O)C(=O)N[C@H](C(=O)N[C@H]1CSSC[C@@H](C(=O)N[C@@H](Cc2c[nH]cn2)C(=O)N[C@@H](CCCNC(=N)N)C(=O)N[C@@H](CCCNC(=N)N)C(=O)N[C@@H](C)C(=O)N[C@@H](CC(N)=O)C(N)=O)NC(=O)[C@H](C(C)C)NC(=O)[C@H](CCCNC(=N)N)NC(=O)[C@H](C(C)C)NC(=O)CNC(=O)[C@H](CC(N)=O)NC(=O)[C@H](CCCNC(=N)N)NC(=O)[C@H](Cc2ccc(O)cc2)NC(=O)[C@H](C(C)C)NC1=O)C(C)C)C(C)C,,,"ICR mice, serum","intraperitoneal, 5 mg/kg, day 5",,creatinine,85.8 ± 3.48 µmol/L

# Some of these lines once more:
SMILES,tested on,test,system,conditions,how to read,quantity,result
COc1ncnn2ccc(-c3cnc4nc(C)n(Cc5nnc([C@@H](C)F)o5)c4c3)c12,,,human patients,"oral, dose not given",,incidence of decreased WBC (all grades),14.3%
O=S(=O)(Nc1ccccc1)c1ccc(NC(=S)Nc2ccccc2)cc1,,,"mouse, male, large intestine","oral, 5 mg/kg daily, 14 days",relative to: body weight,relative organ weight,0.83%
CN[C@H]1CC[C@@H](c2ccc(Cl)c(Cl)c2)c2ccccc21,,,"CD-1 mouse, male, lung","intraperitoneal, 30 mg/kg",,Tmax,0.25 h
